Assay results from different studies.
Parts stem from different laboratories: compare values within a part only.

Block 1
Organism: VSV pseudotyped with SARS-CoV-2 spike
Effect on: viral infection
Concentration: concentration not given
Baseline: vehicle
| Molecule | GFP-positive cells [%] |
| --- | --- |
| maraviroc | 76.2 |
| Sucralfate | 78.8 |
| bleomycin sulfate | 97.2 |

Block 2
Target: Replicase polyprotein 1ab, nsp13 helicase (rep, Severe acute respiratory syndrome coronavirus 2, UniProt P0DTD1)
Mode: inhibitor
Concentration: 20 µM
| Structure (SMILES) | inhibition [%] |
| --- | --- |
| CCN(CC)CCNC(=O)c1ccc(NC(C)=O)cc1 | 3.52 |
| CC(c1cc2ccccc2s1)N(O)C(N)=O (stereo not shown) | 0.26 |
| Cc1ccc(=O)n(-c2ccc(O)cc2)c1 | 5.34 |
| O=C(/C=C/c1ccc(O)cc1)c1ccc(O)cc1O | 3.95 |
| O=C(O)C(Cc1ccccc1)CN(O)C(=O)Cc1ccccc1 (stereo not shown) | 4.43 |
| CNC(=O)c1ccccc1Nc1nc(Nc2ccc(N3CCOCC3)cc2OC)ncc1Cl | -1.03 |
| CC(C)(C)C[C@@H]1N[C@@H](C(=O)N[C@H]2CC[C@H](O)CC2)[C@H](c2cccc(Cl)c2F)[C@]12C(=O)Nc1cc(Cl)ccc12 | 7.54 |
| CCN1/C(=C/C(C)=O)Sc2ccc(OC)cc21 | 4.77 |
| C=CCN(C)CCCCCCOc1ccc(C(=O)c2ccc(Br)cc2)c(F)c1 | 3.8 |
| COCC(O)Cn1ccnc1[N+](=O)[O-] (stereo not shown) | 8.6 |
| CSc1nc2ccc3nc(NC(=O)C(c4ccccc4)c4ccccc4)sc3c2s1 | 4.82 |
| C[C@@H](N[C@H]1CCCC[C@@H]1NC(=O)c1ccc(Cl)cc1)c1cccc2ccccc12 | 1.09 |
| Oc1ncnc2[nH]ncc12 | -0.69 |
| CC(C)C[C@H](NC(=O)CNC(=O)c1cc(Cl)ccc1Cl)B(O)O | 7.12 |
| CC1(C)CC(Oc2ccc(-c3ccc(-c4cn[nH]c4)cc3O)nn2)CC(C)(C)N1 | 4.14 |
| Fc1cc(F)c2c(c1)[C@H]1C=CC[C@H]1C(c1cccnc1)N2 (mixture of isomers) | 3.41 |
| CC(=O)c1ccc2c(c1)[C@H](NC(=O)c1ccc(F)c(Cl)c1)[C@H](O)C(C)(C)O2 | 0.65 |
| NC(=O)CCCCC1CCSS1 (stereo not shown) | 7.53 |
| CN1CCN(Cc2ccc(-c3cnc4[nH]cc(-c5ccc6[nH]ccc6c5)c4c3)cc2)CC1 | 35.3 |
| Cc1cc(C)c(S(=O)(=O)Nc2ccccc2C(F)(F)F)c(C)c1 | 9.08 |
| Cc1cc(C#N)cc(C)c1Oc1nc(Nc2ccc(C#N)cc2)nc(N)c1Br | -0.32 |
| COc1ccc(C(Cl)=C(c2ccc(OC)cc2)c2ccc(OC)cc2)cc1 | 0.67 |
| CCCCCCCCCCCCCCCC(=O)O[C@@H]1[C@@H](O)[C@@H](O)[C@@H]([C@H](NC(=O)[C@@H]2C[C@@H](CCC)CN2C)[C@H](C)Cl)O[C@@H]1SC | 1.78 |
| Cc1ccc(S(=O)(=O)NC(=O)NN2CC3CCC[C@@H]3C2)cc1 (stereo in doubt) | -0.62 |
| COc1cc(N)c(Cl)cc1C(=O)NC1CCN(Cc2ccccc2)CC1 | 2.8 |

Block 3
SMILES: C[C@@](Cc1ccc(O)c(O)c1)(NN)C(=O)O
rep main protease: Replicase polyprotein 1ab, main protease (rep, Severe acute respiratory syndrome coronavirus 2, UniProt P0DTD1)
| target or system | effect on | mode | cell line | concentration | setting | inhibition |
| --- | --- | --- | --- | --- | --- | --- |
| rep main protease | enzyme activity | inhibitor |  | 20 µM | hit confirmation, no DTT | 94.5% |
| SARS-CoV-2 | cytopathic effect |  | Vero E6 | 10 µM |  | -2.2% |
| rep main protease | enzyme activity | inhibitor |  | 20 µM | primary screen | 90.7% |

Block 4
Target: RNA binding protein fox-1 homolog 2, RRM domain, GST-SBP tag (RBFOX2, Homo sapiens, UniProt O43251-10, residues 100-194)
Method: RNA Bind-n-Seq
Molecule type: RNA
Medium: in vitro
Concentration: 365 nM
Setting: natural RNA segment, single round, ends assumed
Baseline: no-protein control
Reading: higher = stronger binding
Shared flanks, not repeated: GGGAGUUCUACAGUCCGACGAUC … UGGAAUUCUCGGGUGCCAA
Target sequence (chain): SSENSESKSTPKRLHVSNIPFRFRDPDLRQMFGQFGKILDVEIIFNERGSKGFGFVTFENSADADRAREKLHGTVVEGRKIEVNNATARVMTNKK
| Oligonucleotide | RBNS enrichment (R) |
| --- | --- |
| GGGCAAGCCAAGUACGAAGCAGCAGCCAUCGCGGGCUGCAUCAUCCCCCAGCCAGGUCCCCACCAGGCCUGUCUCCCAGCGUUUGUCUAAUAAACGCACCCCUCCUAAAA | 0.591 |
| GGAUGGACUAGACCCAUAAAUGUGCCAUGAAUCAAAAUAUUAAUAAUUUGAAAGCUUUCAUGCUGUUAGCCCCUGAUGAAAUUCUCAGCAUUAACUGGCCAGCUCCUCUG | 1.15 |
| ACCCAGUGGACCUGAACUGUUUGGUAGAGCCACCCGGCCCUUCCUUCCUCAUUGUUGUUUGGUAUGCGCACAGUUCCUGUGGGACUGGGCCGUGAGUUUUCCAUUGGAAA | 0.692 |
| GCUCCCUAGCGCUAACCUAGGAACCGCCGCUGCCUGCUGGGGGGCCACGCCCCUCAUGCCCUUGUCCCAGGCCCGGGGCCUUCAGCGUUGAACACUUCCUUGCUUUUUUC | 0.314 |
| UGUUGUCCUGACAGUAAAGCAAAUAGUAAGCCAUGUCUUGAAAGUGAUUUGCUUGUUUCAUACUGACAUCUAAAGACAUCAGCCUUCUCUUUGGCAACCCUGGGGAUACU | 0.46 |
| UUGAGGUACUAAAACUGCAGGUGGGUAUGUCCAUCUCAUCCAUUGUGGCUUGAGACCGGCCUUCAGGAGUCCGCUCUCCAUUUAAACAUCCUUUCUUAUUCAUAGCGCAC | 0.469 |
| UCCACUUAGGCCACACAGUGAUGAGGAAACCACAGAUGGAGCUUCUUGCCGAUAAUACUGACUCUAGCCCAUGAUUGCCUUGCCCAAGCCAAAGAGGAAGGUUAGGUUGG | 0.498 |
| AUGCUAUGUGUUCAUUUCGUGUGCAAGUUCAGAGUGUAAUAGAUUUACCCAGAGAAGGUGUUUCUAUACAAUGCCCCUACCUAUUUGAAAUUACAUGCUUGCCCAACACA | 0.585 |

Block 5
Target: Sal-like protein 4, full length isoform A (SALL4, Homo sapiens, UniProt Q9UJQ4, residues 1-1053)
Sequence of UniProt Q9UJQ4 (whole entry, looked up): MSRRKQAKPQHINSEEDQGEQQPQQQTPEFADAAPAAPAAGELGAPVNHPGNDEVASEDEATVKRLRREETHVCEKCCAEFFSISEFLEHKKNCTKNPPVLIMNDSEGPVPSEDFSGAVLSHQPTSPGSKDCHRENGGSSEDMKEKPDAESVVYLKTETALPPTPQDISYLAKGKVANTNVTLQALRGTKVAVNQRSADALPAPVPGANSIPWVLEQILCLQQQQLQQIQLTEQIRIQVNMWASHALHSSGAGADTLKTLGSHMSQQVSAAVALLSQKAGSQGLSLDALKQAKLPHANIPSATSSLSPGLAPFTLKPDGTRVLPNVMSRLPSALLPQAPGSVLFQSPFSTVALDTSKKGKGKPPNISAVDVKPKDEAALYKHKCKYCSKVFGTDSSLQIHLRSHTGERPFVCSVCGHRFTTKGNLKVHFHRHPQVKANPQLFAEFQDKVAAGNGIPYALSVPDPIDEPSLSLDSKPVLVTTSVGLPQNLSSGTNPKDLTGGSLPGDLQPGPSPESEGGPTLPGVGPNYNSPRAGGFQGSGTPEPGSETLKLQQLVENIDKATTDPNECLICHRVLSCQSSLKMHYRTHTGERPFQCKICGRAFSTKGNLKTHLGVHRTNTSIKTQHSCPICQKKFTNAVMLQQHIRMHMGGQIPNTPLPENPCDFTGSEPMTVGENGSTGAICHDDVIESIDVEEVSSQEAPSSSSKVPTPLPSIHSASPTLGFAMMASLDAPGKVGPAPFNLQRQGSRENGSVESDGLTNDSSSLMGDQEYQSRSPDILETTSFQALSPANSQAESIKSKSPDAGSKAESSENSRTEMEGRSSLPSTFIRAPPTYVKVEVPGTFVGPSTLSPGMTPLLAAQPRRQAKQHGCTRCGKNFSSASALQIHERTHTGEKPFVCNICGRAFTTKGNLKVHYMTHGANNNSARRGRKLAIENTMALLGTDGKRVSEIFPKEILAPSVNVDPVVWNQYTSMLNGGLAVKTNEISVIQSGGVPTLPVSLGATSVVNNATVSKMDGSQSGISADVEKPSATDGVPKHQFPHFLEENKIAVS
Method: universal PBM
Molecule type: double-stranded DNA, one strand shown
Medium: in vitro
Concentration: 600 nM
Setting: 8-mer, flanks averaged, mean of replicates
Reading: higher = stronger binding
| Oligonucleotide | E-score |
| --- | --- |
| GATAAAGC | 0.0767 |
| TCTTAGAA | 0.214 |
| ATCCATGG | -0.216 |
| AGACGCCG | -0.246 |
| AGACCTTA | 0.131 |
| GAGTGAGC | -0.096 |
| CACTAGCG | -0.201 |
| CGTCATGA | -0.0812 |

Block 6
Target: Interferon regulatory factor 5, full length, phosphomimetic (IRF5, Homo sapiens, UniProt Q13568-2, residues 1-514, K96S/S451D/S453D/S456D/S462D)
Method: protein-binding microarray
Molecule type: double-stranded DNA, one strand shown
Medium: in vitro
Concentration: 250 nM
Setting: 60-bp whole probe
Added: salmon DNA 0.4 mg/ml
Baseline: random background probes
Reading: higher = stronger binding
Shared flanks, not repeated: GCCTAGCAC … GTCTTGATTCGCTTGACGCTGCTG
| Oligonucleotide | log fluorescence [z-score] |
| --- | --- |
| TTCTCTAACCTCTCTAATAAAGTGCTA | 0.414 |
| GACGGTCACCTTATCCTGACGTGCTAG | -0.122 |
| TTAGAACTGTGACTGGATTAGTGCTAG | -0.125 |
| CTGTACATCTATGTAGAAAGGTGCTAG | 0.234 |
| TTCTATCTCTGTTTTTGCTTGTGCTAG | 1.57 |
| TCCTCTTTTTTGTTCCACGCGTGCTAG | 1.05 |
| TCTAGCCTCCATTTTTACCCGTGCTAG | -0.322 |
| TCAGTGATAGCTCTGGTACTGTGCTAG | -0.202 |

For quick reference, copied from above (block 1):
| Molecule | GFP-positive cells [%] |
| --- | --- |
| bleomycin sulfate | 97.2 |
| Sucralfate | 78.8 |
| maraviroc | 76.2 |
